Measured values pooled from the literature.
Protocols differ between the studies behind these lines.
PADI4: Protein-arginine deiminase type-4 (PADI4, Homo sapiens, UniProt Q9UM07)
Sequence of UniProt Q9UM07 (whole entry, looked up): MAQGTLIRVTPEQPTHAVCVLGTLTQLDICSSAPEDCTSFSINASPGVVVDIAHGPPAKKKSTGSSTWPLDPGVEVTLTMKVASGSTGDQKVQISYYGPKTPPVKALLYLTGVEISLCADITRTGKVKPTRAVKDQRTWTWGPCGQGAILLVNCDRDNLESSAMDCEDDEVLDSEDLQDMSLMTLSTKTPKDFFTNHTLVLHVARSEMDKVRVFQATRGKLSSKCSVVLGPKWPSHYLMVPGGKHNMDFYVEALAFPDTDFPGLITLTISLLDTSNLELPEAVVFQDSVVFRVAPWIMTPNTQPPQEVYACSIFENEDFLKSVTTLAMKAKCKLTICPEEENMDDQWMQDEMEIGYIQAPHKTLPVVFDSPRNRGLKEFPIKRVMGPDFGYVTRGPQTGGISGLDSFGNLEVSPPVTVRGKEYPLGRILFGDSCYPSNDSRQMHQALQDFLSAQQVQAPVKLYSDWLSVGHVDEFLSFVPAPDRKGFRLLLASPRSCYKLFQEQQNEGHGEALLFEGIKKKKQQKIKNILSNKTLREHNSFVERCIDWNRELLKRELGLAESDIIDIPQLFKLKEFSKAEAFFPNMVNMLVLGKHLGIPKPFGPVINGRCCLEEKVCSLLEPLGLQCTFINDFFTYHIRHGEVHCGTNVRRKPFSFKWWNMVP
MAOB: Amine oxidase [flavin-containing] B (MAOB, Homo sapiens, UniProt P27338)
Sequence of UniProt P27338 (whole entry, looked up): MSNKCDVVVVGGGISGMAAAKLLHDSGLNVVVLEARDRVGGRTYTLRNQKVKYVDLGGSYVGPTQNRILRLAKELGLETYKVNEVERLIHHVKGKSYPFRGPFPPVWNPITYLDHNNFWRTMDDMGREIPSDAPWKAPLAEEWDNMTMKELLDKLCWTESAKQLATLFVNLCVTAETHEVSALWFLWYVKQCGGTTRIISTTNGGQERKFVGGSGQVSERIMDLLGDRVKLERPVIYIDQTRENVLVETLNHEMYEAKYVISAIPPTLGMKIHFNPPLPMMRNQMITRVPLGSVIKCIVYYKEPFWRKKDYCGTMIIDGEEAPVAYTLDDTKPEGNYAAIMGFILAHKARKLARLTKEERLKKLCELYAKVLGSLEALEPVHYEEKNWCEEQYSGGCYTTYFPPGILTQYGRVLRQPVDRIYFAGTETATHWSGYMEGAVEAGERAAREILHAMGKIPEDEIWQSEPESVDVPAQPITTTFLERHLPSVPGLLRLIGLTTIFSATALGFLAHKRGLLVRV
CSNK1A1: Casein kinase I isoform alpha (CSNK1A1, Homo sapiens, UniProt P48729)
Sequence of UniProt P48729 (whole entry, looked up): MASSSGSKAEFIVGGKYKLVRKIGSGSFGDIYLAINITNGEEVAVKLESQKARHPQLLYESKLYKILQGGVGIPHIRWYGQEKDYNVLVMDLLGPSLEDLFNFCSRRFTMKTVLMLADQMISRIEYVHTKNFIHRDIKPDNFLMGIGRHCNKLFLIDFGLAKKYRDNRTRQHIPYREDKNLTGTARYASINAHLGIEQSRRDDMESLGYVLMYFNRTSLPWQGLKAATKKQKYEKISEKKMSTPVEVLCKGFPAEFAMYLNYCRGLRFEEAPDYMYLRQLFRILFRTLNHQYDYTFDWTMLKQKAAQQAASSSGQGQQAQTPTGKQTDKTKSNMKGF
Sequence of UniProt P55786 (whole entry, looked up): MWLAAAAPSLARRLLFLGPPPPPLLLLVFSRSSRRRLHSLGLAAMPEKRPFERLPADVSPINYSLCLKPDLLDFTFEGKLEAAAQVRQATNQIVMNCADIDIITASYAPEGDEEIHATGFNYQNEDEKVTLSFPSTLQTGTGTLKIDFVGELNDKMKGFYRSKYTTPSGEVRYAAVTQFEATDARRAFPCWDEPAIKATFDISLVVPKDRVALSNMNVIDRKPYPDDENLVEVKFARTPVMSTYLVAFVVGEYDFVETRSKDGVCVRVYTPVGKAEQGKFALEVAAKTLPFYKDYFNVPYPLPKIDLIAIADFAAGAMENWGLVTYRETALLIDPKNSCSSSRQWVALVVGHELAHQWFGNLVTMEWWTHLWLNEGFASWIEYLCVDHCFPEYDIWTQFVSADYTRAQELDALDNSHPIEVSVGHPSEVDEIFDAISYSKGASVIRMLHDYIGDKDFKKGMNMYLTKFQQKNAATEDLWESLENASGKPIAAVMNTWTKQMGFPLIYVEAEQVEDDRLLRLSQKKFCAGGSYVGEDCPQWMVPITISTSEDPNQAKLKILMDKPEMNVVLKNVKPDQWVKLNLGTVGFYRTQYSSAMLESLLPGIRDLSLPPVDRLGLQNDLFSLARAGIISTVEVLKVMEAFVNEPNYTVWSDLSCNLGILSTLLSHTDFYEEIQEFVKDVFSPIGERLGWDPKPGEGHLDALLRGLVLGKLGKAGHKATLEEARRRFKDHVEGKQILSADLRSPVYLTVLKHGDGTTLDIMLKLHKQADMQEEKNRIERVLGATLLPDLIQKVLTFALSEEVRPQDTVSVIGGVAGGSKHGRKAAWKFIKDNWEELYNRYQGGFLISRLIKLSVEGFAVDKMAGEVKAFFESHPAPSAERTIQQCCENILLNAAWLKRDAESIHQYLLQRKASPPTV
Sequence of UniProt Q92793 (whole entry, looked up): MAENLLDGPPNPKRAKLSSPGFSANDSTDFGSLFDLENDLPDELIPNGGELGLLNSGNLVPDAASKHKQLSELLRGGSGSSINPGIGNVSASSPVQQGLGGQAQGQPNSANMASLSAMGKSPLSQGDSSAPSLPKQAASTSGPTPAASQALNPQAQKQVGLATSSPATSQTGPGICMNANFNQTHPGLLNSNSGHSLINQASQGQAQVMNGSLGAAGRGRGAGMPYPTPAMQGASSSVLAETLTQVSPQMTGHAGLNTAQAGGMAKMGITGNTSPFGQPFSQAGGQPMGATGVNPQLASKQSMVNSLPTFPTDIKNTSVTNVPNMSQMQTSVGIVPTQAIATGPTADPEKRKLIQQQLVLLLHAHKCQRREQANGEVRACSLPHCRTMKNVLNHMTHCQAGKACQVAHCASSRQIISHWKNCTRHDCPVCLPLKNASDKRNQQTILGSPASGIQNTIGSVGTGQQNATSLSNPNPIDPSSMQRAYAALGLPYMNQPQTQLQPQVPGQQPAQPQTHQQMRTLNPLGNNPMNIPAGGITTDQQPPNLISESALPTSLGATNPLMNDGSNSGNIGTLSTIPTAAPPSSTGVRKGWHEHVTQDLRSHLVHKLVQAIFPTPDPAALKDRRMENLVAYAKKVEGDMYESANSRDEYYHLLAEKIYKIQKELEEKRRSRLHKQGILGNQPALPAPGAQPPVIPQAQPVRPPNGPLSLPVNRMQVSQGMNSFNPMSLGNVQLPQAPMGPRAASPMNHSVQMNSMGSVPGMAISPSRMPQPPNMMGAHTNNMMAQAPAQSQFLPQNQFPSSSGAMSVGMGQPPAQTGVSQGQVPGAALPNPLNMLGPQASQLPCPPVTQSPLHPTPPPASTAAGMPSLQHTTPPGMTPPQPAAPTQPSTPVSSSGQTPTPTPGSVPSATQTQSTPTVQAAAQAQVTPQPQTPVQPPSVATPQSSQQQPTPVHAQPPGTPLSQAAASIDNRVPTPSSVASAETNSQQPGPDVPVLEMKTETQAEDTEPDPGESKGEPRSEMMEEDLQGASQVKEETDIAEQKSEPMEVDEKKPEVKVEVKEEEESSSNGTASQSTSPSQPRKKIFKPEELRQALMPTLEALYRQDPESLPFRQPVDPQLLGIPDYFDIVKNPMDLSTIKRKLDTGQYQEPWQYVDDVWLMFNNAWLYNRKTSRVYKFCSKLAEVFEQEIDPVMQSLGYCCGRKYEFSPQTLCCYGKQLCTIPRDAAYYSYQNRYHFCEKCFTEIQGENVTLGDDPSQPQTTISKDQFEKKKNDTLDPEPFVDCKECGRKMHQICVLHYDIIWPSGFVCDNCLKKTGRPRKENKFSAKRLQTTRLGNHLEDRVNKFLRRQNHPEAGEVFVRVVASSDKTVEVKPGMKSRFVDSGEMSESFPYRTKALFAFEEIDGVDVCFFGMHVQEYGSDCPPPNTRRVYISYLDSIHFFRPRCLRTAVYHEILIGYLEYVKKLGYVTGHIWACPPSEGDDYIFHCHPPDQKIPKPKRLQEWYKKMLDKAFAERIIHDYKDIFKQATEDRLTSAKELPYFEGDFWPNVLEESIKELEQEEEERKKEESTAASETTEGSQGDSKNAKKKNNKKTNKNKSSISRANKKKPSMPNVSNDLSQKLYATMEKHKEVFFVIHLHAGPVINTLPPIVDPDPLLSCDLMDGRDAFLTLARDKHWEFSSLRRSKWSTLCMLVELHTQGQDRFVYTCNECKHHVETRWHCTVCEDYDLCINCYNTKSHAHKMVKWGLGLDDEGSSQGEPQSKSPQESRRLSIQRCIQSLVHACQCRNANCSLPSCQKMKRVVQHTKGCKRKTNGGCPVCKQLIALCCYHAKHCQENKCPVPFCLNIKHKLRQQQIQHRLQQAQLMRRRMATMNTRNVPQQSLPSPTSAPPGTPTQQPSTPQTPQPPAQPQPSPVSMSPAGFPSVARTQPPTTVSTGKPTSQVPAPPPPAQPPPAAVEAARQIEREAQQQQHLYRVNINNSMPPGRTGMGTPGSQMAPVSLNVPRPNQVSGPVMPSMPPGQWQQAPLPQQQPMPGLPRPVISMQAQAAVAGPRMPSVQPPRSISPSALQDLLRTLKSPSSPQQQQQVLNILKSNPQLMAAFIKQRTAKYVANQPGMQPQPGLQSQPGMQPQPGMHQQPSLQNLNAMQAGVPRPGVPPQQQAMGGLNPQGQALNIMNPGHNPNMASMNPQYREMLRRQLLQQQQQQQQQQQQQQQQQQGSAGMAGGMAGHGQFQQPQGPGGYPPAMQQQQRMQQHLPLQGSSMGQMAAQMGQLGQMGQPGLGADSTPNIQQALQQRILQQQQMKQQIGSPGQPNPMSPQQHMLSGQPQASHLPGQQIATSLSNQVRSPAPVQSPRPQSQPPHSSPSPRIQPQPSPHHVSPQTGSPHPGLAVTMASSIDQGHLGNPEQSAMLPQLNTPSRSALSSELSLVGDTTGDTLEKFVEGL

SMILES | target | observed | technique | together with | baseline | selectivity ratio
N=C(CCl)NCCC[C@H](NC(=O)c1ccc2cc(-c3ccc4nncn4c3)ccc2c1)C(=O)NCc1ccccc1 | PADI4 | – | – | – | PAD4 IC50 over PAD1 IC50 | 0.949
Cc1cc2c(NC(=O)c3cccc(C(=O)O)c3)cccc2nn1 | CREB-binding protein, bromodomain (CREBBP, Homo sapiens, UniProt Q92793) | binding | BROMOscan competition binding | – | Kd BRD4 bromodomain 1 over Kd CBP bromodomain | 37
O=C(Nc1ccc(F)c(F)c1)c1ccc2c(c1)C(=O)NC2=O | MAOB | – | – | – | IC50 MAO-A over IC50 MAO-B | > 1670
CCCCCOc1ccc2ccc(C(=O)N[C@@H](CCCNC(=N)CCl)C(=O)NCc3ccccc3)cc2c1 | PADI4 | – | – | – | PAD4 IC50 over PAD1 IC50 | 0.434
COc1ccc(C[C@H](N)C(=O)N[C@H]2[C@@H](O)[C@H](n3cnc4c(N(C)C)ncnc43)O[C@@H]2CO)cc1 | Puromycin-sensitive aminopeptidase (Homo sapiens, UniProt P55786) | enzyme activity | fluorescence | Ala-4-MNA substrate | APN IC50 over PSA IC50 | 4.3 fold
O=C(Nc1ccc(Cl)c(F)c1)c1ccc2c(c1)C(=O)NC2=O | MAOB | – | – | – | IC50 MAO-A over IC50 MAO-B | > 1380
Oc1ccccc1-c1n[nH]cc1-c1ccnc2ccccc12 | CSNK1A1 | enzyme activity | ADP-Glo | – | IC50 over Yck2 IC50 | 10
CC[C@H](C)[C@H](NC(=O)[C@H](CCCCN)NC(=O)[C@@H](NC(=O)[C@H](CCCNC(=N)N)NC(=O)[C@@H](NC(=O)c1ccc2c(c1)C(=O)OC21c2ccc(O)cc2Oc2cc(O)ccc21)[C@@H](C)O)[C@@H](C)O)C(=O)N[C@@H](CC(=O)O)C(=O)N[C@@H](Cc1c[nH]c2ccccc12)C(=O)NC(C)(C)C(=O)N[C@@H](CCCCN)C(=O)N[C@H](C(=O)N[C@@H](CC(C)C)C(=O)NC(C)(C)C(=O)N[C@@H](CCCCN)C(=O)NCCCCCC(=O)NCCCC[C@H](NC(=O)CCCCCNC(=O)[C@H](CCCCN)NC(=O)C(C)(C)NC(=O)[C@H](CC(C)C)NC(=O)[C@@H](NC(=O)[C@H](CCCCN)NC(=O)C(C)(C)NC(=O)[C@H](Cc1c[nH]c2ccccc12)NC(=O)[C@H](CC(=O)O)NC(=O)[C@@H](NC(=O)[C@H](CCCCN)NC(=O)[C@@H](NC(=O)[C@H](CCCNC(=N)N)NC(=O)[C@@H](NC(=O)c1ccc2c(c1)C(=O)OC21c2ccc(O)cc2Oc2cc(O)ccc21)[C@@H](C)O)[C@@H](C)O)[C@@H](C)CC)[C@@H](C)CC)C(N)=O)[C@@H](C)CC | S100P and S100B (human) | binding | fluorescence anisotropy | – | Kd S100P over Kd S100B | ~7 fold
COc1cccc(OC)c1-c1cc(NC(=O)C2(C(=O)O)CCCCC2)nn1-c1cccc2ccccc12 | Neurotensin receptor type 2 (Rattus norvegicus, UniProt Q63384) | binding | – | – | Ki NTS1 over Ki NTS2 | 79 fold
c1ccc(-c2n[nH]cc2-c2ccncn2)nc1 | CSNK1A1 | enzyme activity | ADP-Glo | – | IC50 over Yck2 IC50 | > 20
O=C(Nc1cccc(Cl)c1)c1ccc2c(c1)C(=O)NC2=O | MAOB | – | – | – | IC50 MAO-A over IC50 MAO-B | > 138
N=C(CCl)NCCC[C@H](NC(=O)c1ccc2ccc(O)cc2c1)C(=O)NCc1ccccc1 | PADI4 | – | – | – | PAD4 IC50 over PAD1 IC50 | 0.648 to 0.879

Some of these lines once more:
SMILES | target | observed | technique | together with | baseline | selectivity ratio
CC[C@H](C)[C@H](NC(=O)[C@H](CCCCN)NC(=O)[C@@H](NC(=O)[C@H](CCCNC(=N)N)NC(=O)[C@@H](NC(=O)c1ccc2c(c1)C(=O)OC21c2ccc(O)cc2Oc2cc(O)ccc21)[C@@H](C)O)[C@@H](C)O)C(=O)N[C@@H](CC(=O)O)C(=O)N[C@@H](Cc1c[nH]c2ccccc12)C(=O)NC(C)(C)C(=O)N[C@@H](CCCCN)C(=O)N[C@H](C(=O)N[C@@H](CC(C)C)C(=O)NC(C)(C)C(=O)N[C@@H](CCCCN)C(=O)NCCCCCC(=O)NCCCC[C@H](NC(=O)CCCCCNC(=O)[C@H](CCCCN)NC(=O)C(C)(C)NC(=O)[C@H](CC(C)C)NC(=O)[C@@H](NC(=O)[C@H](CCCCN)NC(=O)C(C)(C)NC(=O)[C@H](Cc1c[nH]c2ccccc12)NC(=O)[C@H](CC(=O)O)NC(=O)[C@@H](NC(=O)[C@H](CCCCN)NC(=O)[C@@H](NC(=O)[C@H](CCCNC(=N)N)NC(=O)[C@@H](NC(=O)c1ccc2c(c1)C(=O)OC21c2ccc(O)cc2Oc2cc(O)ccc21)[C@@H](C)O)[C@@H](C)O)[C@@H](C)CC)[C@@H](C)CC)C(N)=O)[C@@H](C)CC | S100P and S100B (human) | binding | fluorescence anisotropy | – | Kd S100P over Kd S100B | ~7 fold
